Results from different studies.
Parts stem from different laboratories: compare values within a part only. Positions count from the first letter of the parent shown.

Series 1 — method: aptamer microarray, sandwich; molecule type: DNA with 2'F-ANA; matrix: in vitro; tested at: 200 nM; with: Cy3 exosite-II aptamer, 400 nM; direction: higher = stronger binding; measurement: mean fluorescence intensity; sequence: GGTTGGTGTGGTTGG
Target: Prothrombin, mature alpha-thrombin (F2, Homo sapiens, UniProt P00734)
Setting: whole 15-mer aptamer, many near background
2'F-ANA at 1 8 10 12 14: 49.8 a.u.
2'F-ANA at 1 3 4 6 7 10 11 12 13 14: 59.7 a.u.
2'F-ANA at 2 6 7 9 11 14 15: 106 a.u.
2'F-ANA at 4 5 6 7 9 13: 94.9 a.u.
2'F-ANA at 2 4 6 8: 393 a.u.
2'F-ANA at 2 3 4 5 6 7 8 9 11 14: 48.1 a.u.
2'F-ANA at 5 6 7 10 13 15: 46.7 a.u.
2'F-ANA at 1 3 4 7 8 11 12 13: 309 a.u.
2'F-ANA at 1 4 8 11 12 13 14: 56.2 a.u.
2'F-ANA at 6 11 12 13 15: 552 a.u.
2'F-ANA at 1 3 5 6 10 11 12 13: 51.7 a.u.
2'F-ANA at 2 3 5 6 10 14: 54.4 a.u.
2'F-ANA at 3 4 6 12: 979 a.u.
2'F-ANA at 1 2 4 5 7 12 14: 98.9 a.u.
2'F-ANA at 1 2 5 7 9 10 12 14: 46.1 a.u.
2'F-ANA at 2 4 7 9 14: 96.8 a.u.
2'F-ANA at 9 11 13 14 15: 145 a.u.
2'F-ANA at 2 3 4 5 7 8 9 11 14: 47.2 a.u.

Series 2 — method: DHFR PCA, deep sequencing; matrix: yeast; with: (+)-ABA 1.4 µM; baseline: wild-type fitted maximum; direction: higher = stronger binding; measurement: relative binding score
Target: ABI1, truncated, D143A, DHFR fusion (Arabidopsis thaliana)
Setting: methotrexate growth selection, single substitutions
Starting sequence: PYL1, truncated, DHFR fusion (Arabidopsis thaliana); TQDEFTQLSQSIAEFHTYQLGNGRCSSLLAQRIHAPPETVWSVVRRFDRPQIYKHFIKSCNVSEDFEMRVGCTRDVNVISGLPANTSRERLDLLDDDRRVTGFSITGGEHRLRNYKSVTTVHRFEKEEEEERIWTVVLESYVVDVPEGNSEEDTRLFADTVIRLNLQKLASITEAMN
A13M: 29.2%
Y141R: -4.7%
S9N: 54.2%
N114C: -15.6%
R74T: -5.98%
E4I: 53%
M176W: 38.6%
V143W: -15.8%
E127G: 60.9%
D153P: -13.9%
L112I: -10.4%
E125R: 59.3%
R24K: 71.8%
R99Y: 80.5%
L156V: 49.9%
A175E: 49%
K116L: -5.16%
L164Q: 61%
E64D: 64.1%
E67R: 37.3%
K116S: 53.5%
R88C: 47%
V137R: -2.89%
A170Q: 39.3%
L28W: 15%

Series 3 — method: RNA Bind-n-Seq; molecule type: RNA; matrix: in vitro; tested at: 200 nM; setting: whole 134-nt RNA, ends assumed; with: 150 mM KCl; baseline: input library; direction: higher = stronger binding; measurement: log2 enrichment
Target: Ras GTPase-activating protein-binding protein 1, full length (G3BP1, Homo sapiens, UniProt Q13283)
Sequence of UniProt Q13283 (whole entry, looked up): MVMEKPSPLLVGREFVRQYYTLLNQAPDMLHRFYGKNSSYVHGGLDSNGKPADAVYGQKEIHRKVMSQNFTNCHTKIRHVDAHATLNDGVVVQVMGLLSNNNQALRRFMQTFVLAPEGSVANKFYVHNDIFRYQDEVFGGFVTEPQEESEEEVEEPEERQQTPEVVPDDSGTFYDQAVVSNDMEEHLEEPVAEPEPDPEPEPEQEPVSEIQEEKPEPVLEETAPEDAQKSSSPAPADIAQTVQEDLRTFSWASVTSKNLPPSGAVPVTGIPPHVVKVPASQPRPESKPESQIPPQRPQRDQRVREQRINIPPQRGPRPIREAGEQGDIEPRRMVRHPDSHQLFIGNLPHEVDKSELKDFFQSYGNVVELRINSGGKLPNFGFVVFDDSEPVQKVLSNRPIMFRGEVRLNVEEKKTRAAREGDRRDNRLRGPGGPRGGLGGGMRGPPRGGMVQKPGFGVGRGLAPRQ
All sequences stand within: GGGAGUUCUACAGUCCGACGAUC … UGGAAUUCUCGGGUGUCAAGG
AGUCCUGUGCUACACAUCGUAUGUACCGAAUCGGGGCCCCGGGGCCCCGGGCCCCGGGAAAGUAUUAUGUUACGCCGUUCGGAUCUGCAC: -0.785
GCAGGAAGUACAAACAAAUGGAAAUGCUUCGGAUAGUGGCAGGGGUGGGGGUUGCUAAGGAAAGGGUGGGAUGGGAGUGGGUAAAGAGUU: 0.949
CCUCAAGUCCUGUGCUACACAUCGUAUGUACCGAAUCGGAAAAAGGAGGAGGAAAGUAUUAUGUUACGCCGUUCGGAUCUGCACUUCCAG: -0.103
UCAAGUCCUGUGCUACACAUCGUAUGUACCGAAUCGGGGCCGGGCCGGCCGGGGAAAGUAUUAUGUUACGCCGUUCGGAUCUGCACUUCC: -0.254
AGUCCUGUGCUACACAUCGUAUGUACCGAAUCGGGGUUUUUGGUUUUUGGUUUUUGGAAAGUAUUAUGUUACGCCGUUCGGAUCUGCACU: -1.17
ACCAUGCAGGUGGGCAUCUUUGGGAAGUGGGGCAAGGGGGGGAAAAGGAGGGGGGUAACACUUUGGGAACAGGUGGUCCCAGGUCGUUUC: 0.964
UCUGAGCAAUUGAAUGCCCUAAACAAGGCUUACCAUGACCUUUGUGAUGGUUCUGCAAAUCAGCUUCAGCAGCUUCAGAGCCAGUUGGCU: -2.35
AAGUCCUGUGCUACACAUCGUAUGUACCGAAUCGGCCCCGGGGCCCCGGCCCCGGGGAAAGUAUUAUGUUACGCCGUUCGGAUCUGCACU: -1.38
CUCAAGUCCUGUGCUACACAUCGUAUGUACCGAAUCGGCCGGGCCGGGGCCGGAAAGUAUUAUGUUACGCCGUUCGGAUCUGCACUUCCA: -0.16

Series 4 — target: CCNB3, cyclin fold, Cln2 fusion (human); method: yeast growth competition, sequencing; matrix: yeast; setting: weak parent motif; baseline: not given; direction: higher = stronger binding; measurement: normalised enrichment score
Starting sequence: MASTL docking peptide (human); PMIAKNLMCELDE
PMVAKNLMCELDE [I3V]: -0.438
PMTAKNLMCELDE [I3T]: 0.0714
PMIAKHLMCELDE [N6H]: 0.0232
PMIAKNLMCECDE [L11C]: -0.157
PMIAKNLMCEWDE [L11W]: 0.275
PMIAKNLMCEEDE [L11E]: 0.263
PMIGKNLMCELDE [A4G]: -0.133
PMIAKNLECELDE [M8E]: 0.142
PMIAKDLMCELDE [N6D]: 0.0406
PMIAKNLMCILDE [E10I]: -0.14
PMIAKNIMCELDE [L7I]: 0.161
PMIAKNDMCELDE [L7D]: -0.114
PMIAKNLMCEDDE [L11D]: -0.114
PMIAKNLMCELHE [D12H]: 0.119
PMIAKNLCCELDE [M8C]: -0.248
PMIAKNLMDELDE [C9D]: -0.295
PMIAKNLMNELDE [C9N]: -0.344
PMIAKELMCELDE [N6E]: 0.00507
PMIAKMLMCELDE [N6M]: 0.177
PMIAKNLGCELDE [M8G]: -0.172
PMIAKNLVCELDE [M8V]: 0.0492
PGIAKNLMCELDE [M2G]: 0.00762
PMIAKNTMCELDE [L7T]: -0.282
PVIAKNLMCELDE [M2V]: -0.0788
PMIAKNLMCELVE [D12V]: 0.0527

Excerpt of the above (series 1):
2'F-ANA at 2 4 6 8: 393 a.u.
2'F-ANA at 1 8 10 12 14: 49.8 a.u.
2'F-ANA at 2 4 7 9 14: 96.8 a.u.
2'F-ANA at 1 2 4 5 7 12 14: 98.9 a.u.
2'F-ANA at 1 3 5 6 10 11 12 13: 51.7 a.u.
